# Measured values gathered from unrelated publications.
# Lines come from different studies, so protocols differ. “And” joins repeats or separate records; there may be more than shown. ± gives the spread as reported.
SMILES,assay,test system,setting,remaining compound
COc1cc2c(cc1NC(=O)c1cncn1C)C[C@H]1[C@H]3CCCC[C@@]23CCN1C,,"human plasma, 50% in PBS","5 µM, 1 h, 37 °C",104%
N[C@@H](Cc1ccc(O)cc1)C(=O)N[C@@H]1CSCc2ccccc2CSC[C@@H](NC(=O)[C@@H](N)Cc2ccc(O)cc2)C(=O)NCC(=O)N[C@@H](Cc2ccc(F)cc2)C(=O)NNC(=O)[C@H](Cc2ccc(F)cc2)NC(=O)CNC1=O,LC-MS,human plasma,"5 µM, 1 h, 37 °C",95.4%
C[C@@H](Oc1ccc2c(c1)[C@H]1CCN[C@@]1(C)CO2)c1ccccc1,HPLC,DPBS,"10 µM, 4 h, added: CellROX Green 5 µM and tBHP 55 µM",97%
CCN(CC)CCOc1ccc(-c2nnn(Cc3ccc(OC)cc3)c2N)cc1,,mouse hepatocytes,"concentration not given, time not given",32.6%
O=c1[nH]c2ccccc2c(=O)o1,HPLC-MS,HEPES buffer,"1 h, pH 7.4",41%
C=CCN1CCC23c4c5ccc(OC(=O)c6ccccc6)c4OC2C(=O)CCC3(O)C1C5 (stereo not drawn),,rat plasma,"1 h, added: loperamide 100 µM",11.4% and 11.6% and 13.1%
CC(C)=CCC/C(C)=C/CCn1cc(CC(P(=O)(O)O)P(=O)(O)O)nn1,,mouse plasma,"4 h, 37 °C, equilibrium dialysis stability",100 ± 7.7%
C=CCN1CCC23c4c5ccc(OC(=O)c6ccc(NC(=O)OC(C)(C)C)cc6)c4OC2C(=O)CCC3(O)C1C5 (stereo not drawn),,human plasma,0 h,99.2% and 100% and 101%
C[C@H](NCc1ccc(-c2ccc(C(F)(F)F)cc2)cc1)C(N)=O,,dog liver microsomes,"1 µM, 30 min",60.7%
O=C(O)c1ccc(-c2nc(-c3ccccc3Cl)c3sccn23)cc1,,mouse liver microsomes,"1 µM, 30 min",50.8%
CC(=O)N[C@@H](CCCNC(=N)N)C(=O)N[C@@H](CCCCN)C(=O)N[C@@H](CCC(=O)N=S(c1ccc(Cl)cc1)c1ccccc1O)C(=O)N[C@H](C(=O)N[C@@H](Cc1ccc(O)cc1)C(N)=O)C(C)C (stereo partly drawn),HPLC,95% fetal bovine serum in PBS,"0.5 mM, 1 h, pH 7.4, 37 °C",99.3%
C=CCN1CCC23c4c5ccc(OC(=O)c6ccc(N)cc6)c4OC2C(=O)CCC3(O)C1C5 (stereo not drawn),,rat plasma,"1 h, added: digitonin 100 µM",0.3% and 0.271%
Cc1nnc(-c2ccc(CC(=O)NCCCC[C@H](NC(=O)c3ccc(OCc4ccc(B(O)O)cc4)c(-c4nc5ccccc5c(=O)[nH]4)c3)C(=O)NCC(=O)NCC(=O)NCC(=O)N[C@@H](Cc3ccccc3)C(=O)N[C@@H](Cc3ccccc3)C(=O)O)cc2)nn1,UPLC-MS/MS,human serum,"100 µM, 0.5 h, 37 °C",100% and 101%
Cc1cc(-c2ccc3ccccc3c2)nnc1NCCN1CCN(C)CC1,,human liver microsomes,10 min,102%
C/C(=N\OCCCN1CCCCC1)c1ccc(C(F)(F)F)cc1,,mouse liver microsomes,30 min,58%

# For quick reference, copied from above:
SMILES,assay,test system,setting,remaining compound
N[C@@H](Cc1ccc(O)cc1)C(=O)N[C@@H]1CSCc2ccccc2CSC[C@@H](NC(=O)[C@@H](N)Cc2ccc(O)cc2)C(=O)NCC(=O)N[C@@H](Cc2ccc(F)cc2)C(=O)NNC(=O)[C@H](Cc2ccc(F)cc2)NC(=O)CNC1=O,LC-MS,human plasma,"5 µM, 1 h, 37 °C",95.4%
